Experimental data pooled from the literature.
± gives the spread as reported.
Tubulin alpha-1B chain/TUBB2B: Tubulin alpha-1B chain/TUBB2B (Bos taurus, UniProt P81947+Q6B856)
Chain of UniProt P81947 (whole entry, looked up): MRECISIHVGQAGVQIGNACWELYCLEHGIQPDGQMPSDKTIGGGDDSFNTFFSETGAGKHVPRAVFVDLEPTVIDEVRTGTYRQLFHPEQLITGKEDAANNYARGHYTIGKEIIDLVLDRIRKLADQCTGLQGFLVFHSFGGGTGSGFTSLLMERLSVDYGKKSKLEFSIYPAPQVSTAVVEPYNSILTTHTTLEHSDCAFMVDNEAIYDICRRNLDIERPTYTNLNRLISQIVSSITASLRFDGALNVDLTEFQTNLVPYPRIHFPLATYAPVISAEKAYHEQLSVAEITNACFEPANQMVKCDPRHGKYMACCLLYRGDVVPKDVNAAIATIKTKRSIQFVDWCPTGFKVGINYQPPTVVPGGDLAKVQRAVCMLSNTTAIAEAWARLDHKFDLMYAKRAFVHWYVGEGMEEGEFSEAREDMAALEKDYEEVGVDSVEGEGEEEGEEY
Chain of UniProt Q6B856 (whole entry, looked up): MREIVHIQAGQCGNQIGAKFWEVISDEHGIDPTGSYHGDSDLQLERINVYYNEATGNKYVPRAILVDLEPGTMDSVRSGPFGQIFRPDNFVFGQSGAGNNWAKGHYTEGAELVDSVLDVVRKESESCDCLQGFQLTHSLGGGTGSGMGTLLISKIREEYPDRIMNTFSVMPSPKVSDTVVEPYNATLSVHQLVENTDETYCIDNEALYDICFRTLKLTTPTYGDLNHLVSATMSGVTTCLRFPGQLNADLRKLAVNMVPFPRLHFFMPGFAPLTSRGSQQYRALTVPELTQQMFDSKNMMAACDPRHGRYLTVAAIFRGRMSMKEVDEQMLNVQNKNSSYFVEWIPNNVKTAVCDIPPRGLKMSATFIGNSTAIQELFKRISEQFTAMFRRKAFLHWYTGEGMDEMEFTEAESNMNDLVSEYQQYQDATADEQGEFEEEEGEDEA
DIO2: Type II iodothyronine deiodinase (DIO2, Homo sapiens, UniProt Q92813)
Chain of UniProt Q92813 (whole entry, looked up): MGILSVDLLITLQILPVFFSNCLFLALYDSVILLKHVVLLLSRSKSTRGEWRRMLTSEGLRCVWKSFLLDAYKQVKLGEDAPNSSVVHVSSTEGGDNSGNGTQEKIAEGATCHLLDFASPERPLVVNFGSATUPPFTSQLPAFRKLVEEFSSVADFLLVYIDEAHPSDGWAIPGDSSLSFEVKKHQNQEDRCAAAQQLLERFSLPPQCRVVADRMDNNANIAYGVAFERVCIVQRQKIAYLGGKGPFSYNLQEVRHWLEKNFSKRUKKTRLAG
ADRA2A: Alpha-2A adrenergic receptor (ADRA2A, Homo sapiens, UniProt P08913)
Chain of UniProt P08913 (whole entry, looked up): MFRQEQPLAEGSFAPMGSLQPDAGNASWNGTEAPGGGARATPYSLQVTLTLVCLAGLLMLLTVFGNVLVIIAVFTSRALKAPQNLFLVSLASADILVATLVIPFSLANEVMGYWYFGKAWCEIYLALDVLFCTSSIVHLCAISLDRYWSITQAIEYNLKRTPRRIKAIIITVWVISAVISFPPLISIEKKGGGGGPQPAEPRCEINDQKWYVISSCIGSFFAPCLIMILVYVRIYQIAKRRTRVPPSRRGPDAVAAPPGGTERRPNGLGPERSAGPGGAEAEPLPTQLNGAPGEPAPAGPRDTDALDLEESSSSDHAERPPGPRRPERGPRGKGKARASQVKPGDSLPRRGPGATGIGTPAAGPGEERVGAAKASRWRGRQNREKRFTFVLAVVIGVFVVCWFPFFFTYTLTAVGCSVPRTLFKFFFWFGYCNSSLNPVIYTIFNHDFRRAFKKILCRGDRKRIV
HDAC2: Histone deacetylase 2 (HDAC2, Homo sapiens, UniProt Q92769)
Chain of UniProt Q92769 (whole entry, looked up): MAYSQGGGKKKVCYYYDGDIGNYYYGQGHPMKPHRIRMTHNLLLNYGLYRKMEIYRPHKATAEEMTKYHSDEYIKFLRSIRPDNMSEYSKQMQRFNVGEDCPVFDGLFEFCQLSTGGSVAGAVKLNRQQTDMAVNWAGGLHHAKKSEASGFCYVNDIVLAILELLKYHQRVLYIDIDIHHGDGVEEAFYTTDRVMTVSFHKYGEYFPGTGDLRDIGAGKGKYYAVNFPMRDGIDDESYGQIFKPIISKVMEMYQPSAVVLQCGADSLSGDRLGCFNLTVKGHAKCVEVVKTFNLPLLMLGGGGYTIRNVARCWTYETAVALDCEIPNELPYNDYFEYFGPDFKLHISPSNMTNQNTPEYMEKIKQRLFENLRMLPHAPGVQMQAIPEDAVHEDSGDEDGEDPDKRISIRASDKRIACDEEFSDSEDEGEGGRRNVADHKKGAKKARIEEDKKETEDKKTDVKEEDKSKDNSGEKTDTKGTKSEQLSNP
APP: Amyloid-beta precursor protein (APP, Homo sapiens, UniProt P05067)
Chain of UniProt P05067 (whole entry, looked up): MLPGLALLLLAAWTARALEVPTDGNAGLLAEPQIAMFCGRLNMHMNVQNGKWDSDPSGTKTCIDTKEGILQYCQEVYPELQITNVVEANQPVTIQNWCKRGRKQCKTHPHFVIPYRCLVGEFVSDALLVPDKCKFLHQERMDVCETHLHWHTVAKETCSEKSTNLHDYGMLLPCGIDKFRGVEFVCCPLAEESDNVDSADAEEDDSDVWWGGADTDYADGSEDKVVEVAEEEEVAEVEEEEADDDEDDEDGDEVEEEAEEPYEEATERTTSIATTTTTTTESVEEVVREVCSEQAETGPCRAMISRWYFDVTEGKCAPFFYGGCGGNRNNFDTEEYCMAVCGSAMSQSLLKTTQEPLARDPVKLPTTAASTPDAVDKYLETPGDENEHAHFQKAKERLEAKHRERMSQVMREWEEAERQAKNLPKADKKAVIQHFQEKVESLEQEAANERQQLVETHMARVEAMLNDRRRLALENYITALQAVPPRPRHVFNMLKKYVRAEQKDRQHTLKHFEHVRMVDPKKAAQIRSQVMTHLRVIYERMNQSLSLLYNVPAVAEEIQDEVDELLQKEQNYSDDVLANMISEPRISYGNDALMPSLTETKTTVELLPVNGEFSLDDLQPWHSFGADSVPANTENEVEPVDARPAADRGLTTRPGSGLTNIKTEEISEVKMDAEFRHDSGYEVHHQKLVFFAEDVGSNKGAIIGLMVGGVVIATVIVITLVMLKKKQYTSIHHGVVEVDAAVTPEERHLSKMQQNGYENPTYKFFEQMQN
Chain of UniProt Q16539 (whole entry, looked up): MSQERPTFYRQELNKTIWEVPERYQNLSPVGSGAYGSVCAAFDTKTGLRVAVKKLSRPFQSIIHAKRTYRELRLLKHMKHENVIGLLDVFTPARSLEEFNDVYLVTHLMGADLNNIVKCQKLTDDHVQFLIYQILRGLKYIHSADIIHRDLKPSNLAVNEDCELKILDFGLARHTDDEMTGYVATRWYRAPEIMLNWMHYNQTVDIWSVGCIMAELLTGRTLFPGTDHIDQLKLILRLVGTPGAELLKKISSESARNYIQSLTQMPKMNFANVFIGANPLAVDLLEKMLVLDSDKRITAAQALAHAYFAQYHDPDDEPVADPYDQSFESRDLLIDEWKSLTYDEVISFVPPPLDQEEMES
Chain of UniProt P77488 (whole entry, looked up): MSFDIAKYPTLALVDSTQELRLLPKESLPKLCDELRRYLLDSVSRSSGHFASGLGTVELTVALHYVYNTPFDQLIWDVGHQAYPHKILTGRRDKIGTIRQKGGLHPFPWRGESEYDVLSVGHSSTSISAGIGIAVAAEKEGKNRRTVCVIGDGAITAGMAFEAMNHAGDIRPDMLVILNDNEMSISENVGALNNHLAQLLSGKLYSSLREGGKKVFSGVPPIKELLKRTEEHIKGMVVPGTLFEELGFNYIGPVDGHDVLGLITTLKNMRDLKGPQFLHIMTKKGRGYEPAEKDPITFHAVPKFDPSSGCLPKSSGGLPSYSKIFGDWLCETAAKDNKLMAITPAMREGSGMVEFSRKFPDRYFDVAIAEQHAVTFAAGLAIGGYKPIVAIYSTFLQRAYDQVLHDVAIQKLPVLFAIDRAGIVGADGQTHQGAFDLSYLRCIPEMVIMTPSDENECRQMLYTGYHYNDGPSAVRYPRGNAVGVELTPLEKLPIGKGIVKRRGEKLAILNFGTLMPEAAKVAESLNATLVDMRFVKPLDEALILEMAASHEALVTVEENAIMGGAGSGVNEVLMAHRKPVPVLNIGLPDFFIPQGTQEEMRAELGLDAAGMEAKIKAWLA
Chain of UniProt C7C422 (whole entry, looked up): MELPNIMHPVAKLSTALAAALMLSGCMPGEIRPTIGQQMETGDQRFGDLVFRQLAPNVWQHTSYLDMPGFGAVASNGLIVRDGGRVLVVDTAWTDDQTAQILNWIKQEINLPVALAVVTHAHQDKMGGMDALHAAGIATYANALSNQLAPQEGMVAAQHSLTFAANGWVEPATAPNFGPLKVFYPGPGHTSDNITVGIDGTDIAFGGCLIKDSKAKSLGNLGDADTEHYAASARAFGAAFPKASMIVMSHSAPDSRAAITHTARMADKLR
Chain of UniProt P42575 (whole entry, looked up): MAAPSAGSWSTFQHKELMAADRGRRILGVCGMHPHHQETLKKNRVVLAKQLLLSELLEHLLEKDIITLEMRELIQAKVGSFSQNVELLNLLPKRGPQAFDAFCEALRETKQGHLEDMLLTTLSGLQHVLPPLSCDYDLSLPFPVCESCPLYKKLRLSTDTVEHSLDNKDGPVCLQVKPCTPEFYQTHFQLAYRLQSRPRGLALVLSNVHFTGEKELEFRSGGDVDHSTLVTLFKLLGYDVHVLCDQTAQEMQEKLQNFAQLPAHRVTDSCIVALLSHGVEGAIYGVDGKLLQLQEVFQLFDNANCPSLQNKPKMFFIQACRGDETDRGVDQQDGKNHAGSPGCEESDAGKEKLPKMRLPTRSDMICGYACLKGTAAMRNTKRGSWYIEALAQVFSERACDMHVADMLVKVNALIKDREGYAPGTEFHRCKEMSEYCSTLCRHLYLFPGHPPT

C=C(Cl)/C=C/[C@@H](O)C(C)C(=C)C[C@H]1O[C@@H]2[C@H](C)[C@@H](OC(=O)C[C@H]3C[C@H](OC(C)=O)C[C@@]4(C[C@@](C)(O)C[C@H](CC(=C)[C@@H](C)[C@H](OC(C)=O)[C@H](C)C(=O)C[C@@H]5C[C@H](OC)C[C@@]6(C[C@@H](O)C[C@H](/C=C\CCC[C@H]7O[C@](O)(C[C@H](O)[C@H]7C)[C@H]2O)C6)O5)O4)O3)[C@@H]1O (stereo partly drawn) — inhibition (Tubulin alpha-1B chain/TUBB2B; [3H]DZA binding; 30 µM, 1.5 h preincubation, pH 6.9, added: [3H]DZA 4.0 µM): 21 ± 7%
CN(C)C/C=C/C(=O)Nc1cccc(C(=O)Nc2ccc(Nc3nccc(-c4cccnc4)n3)cc2)c1 — inhibition (Mitogen-activated protein kinase 14 (MAPK14, Homo sapiens, UniProt Q16539); A-375; 1 µM): 16.4%
Brc1ccc(Oc2cc(Br)c(Br)cc2Br)c(Br)c1 — inhibition (DIO2; H4 glioma; 500 nM, 6 h; reference: untreated): 78.6 ± 3.9%
Cc1ccc2c(c1)CCN(C(=O)[C@@H](NC(=O)[C@H](CCCC(=O)O)NC(=O)[C@@H]1Cc3ccccc3N1)C(C)C)[C@@H]2C(=O)N[C@H](C#N)CC(=O)O — inhibition (Caspase-2 (Homo sapiens, UniProt P42575); enzyme activity, inhibitor; 10 µM): 96%
O=C(O)P(=O)(O)O — inhibition (Gag-Pol polyprotein, reverse transcriptase RNase H (gag-pol, Human immunodeficiency virus 1, UniProt P03366); RNase H activity; 200 µM, single turnover, heparin trap, added: β-thujaplicinol 50 µM): no inhibition
CC1N=C(c2ccccc2F)c2cc(NCc3ccccc3)ccc2NC1=O (stereo not drawn) — inhibition (ADRA2A; ligand displacement, radioligand; 10 µM): 15%
O=C(NCCCCN1C(=O)c2ccccc2C1=O)c1coc(-c2ccccc2O)n1 — inhibition (HDAC2; enzyme activity, inhibitor; 20 µM): 25%
Cc1cc(=O)c(O)c(C(=O)O)o1 — inhibition (Metallo-beta-lactamase type 2 (blaNDM-1, Klebsiella pneumoniae, UniProt C7C422); 200 µM): 12%
CS(=O)(=O)c1ccc2nc(NC(=O)CCN3CCN(c4ncccn4)CC3)sc2c1 — inhibition (APP; amyloid aggregation, inhibitor, fluorescence; 50 µM): 53.7%
CC1N=C(c2ccccc2F)c2cc(Nc3ccc([N+](=O)[O-])cc3)ccc2NC1=O (stereo not drawn) — inhibition (ADRA2A; ligand displacement, radioligand; 10 µM): 52%
CS(=O)(=O)c1ccc2nc(NC(=O)CCN3CCN(c4ccc(C(F)(F)F)cc4)CC3)sc2c1 — inhibition (APP; amyloid aggregation, inhibitor, fluorescence; 50 µM): 53.4%
O=C(O)c1ccc(CNC(=O)c2coc(-c3ccccc3O)n2)cc1 — inhibition (HDAC2; enzyme activity, inhibitor; 20 µM): ≥ 50%
CS(=O)(=O)c1ccc2nc(NC(=O)CCN3CCN(c4ccc(Cl)cc4)CC3)sc2c1 — inhibition (APP; amyloid aggregation, inhibitor, fluorescence; 50 µM): 51.7%
CN[C@@](C)(C[18F])C(=O)O — tracer uptake (MDA-MB-468 tumour model; host not given, lung; 15 min, tumour-bearing): 3.2 %ID/g
O=C(NC(C(=O)O)c1ccccc1)c1ccc(=O)n(O)c1 (stereo not drawn) — inhibition (Metallo-beta-lactamase VIM-2 (VIM-2, Escherichia coli, UniProt Q5U7L7); enzyme activity, inhibitor; 50 µM): 12%
Cc1ccc(N2CCN(CCC(=O)Nc3nc4ccc(S(C)(=O)=O)cc4s3)CC2)cc1 — inhibition (APP; amyloid aggregation, inhibitor, fluorescence; 50 µM): 54.4%
O=C(N[C@@H](Cn1ccnc1)c1ccc(-c2ccc(F)cc2)cc1Cl)c1ccc(-c2nnc(-c3ccccc3)o2)cc1 — inhibition (Putative lanosterol 14-alpha-demethylase (Leishmania infantum, UniProt A2TEF2); enzyme activity, inhibitor; equimolar to enzyme, 1 h, Leishmania infantum CYP51, added: obtusifoliol 50 µM): inhibited
COC(=O)c1ccc(Nc2ccc3c(c2)C(c2ccccc2F)=NC(C)C(=O)N3)cc1 (stereo not drawn) — inhibition (ADRA2A; ligand displacement, radioligand; 10 µM): 77%
CS(=O)(=O)c1ccc2nc(NC(=O)CCN3CCN(c4ccccn4)CC3)sc2c1 — inhibition (APP; self-induced aggregation, thioflavin-T fluorescence; 50 µM, 48 h, added: APP 50 µM): 53.3 ± 0.541%
CONCc1cc(O)c(O)cc1O.Cl — inhibition (1-deoxy-D-xylulose-5-phosphate synthase (dxs, Escherichia coli, UniProt P77488); inhibitor; inactive up to value): > 75 µM
COc1ccc(N2CCN(CCC(=O)Nc3nc4ccc(S(C)(=O)=O)cc4s3)CC2)cc1 — inhibition (APP; amyloid aggregation, inhibitor, fluorescence; 50 µM): 52.3%
O=C(O)C(=O)CBr — inhibition (Sodium-coupled monocarboxylate transporter 1 (Rattus norvegicus, UniProt D3Z9E5); nicotinate uptake; HRPE expressing Sodium-coupled monocarboxylate transporter 1; 1 mM, 15 min, rat, added: [14C]nicotinate 15 µM): 97%
COc1cc([C@@H]2c3cc4c(cc3[C@H](O)[C@H]3COC(=O)[C@H]23)OCO4)cc(OC)c1OC — inhibition (Tubulin alpha-1B chain/TUBB2B; [3H]DZA binding; 30 µM, 1.5 h preincubation, pH 6.9, added: [3H]DZA 4.0 µM): 20 ± 2%
CCCNC(=O)[C@H]1O[C@@H]1C(=O)N[C@H](C(=O)N1CCC[C@H]1C(=O)OC)[C@@H](C)CC — inhibition (Cathepsin B (CTSB, Homo sapiens, UniProt P07858); enzyme activity, inhibitor; neuroblastoma cells; 50 µM, 6 h, 37 °C, added: Z-Arg-Arg-AMC): inhibited
O=C(NCCCCNC(=S)NCCC(c1ccccc1)c1ccccc1)c1coc(-c2ccccc2O)n1 — inhibition (HDAC2; enzyme activity, inhibitor; 20 µM): 1%
CC1N=C(c2ccccc2F)c2cc(Nc3ccc(Cl)cc3)ccc2NC1=O (stereo not drawn) — inhibition (ADRA2A; ligand displacement, radioligand; 10 µM): 78%
CC12CC3CC1(C)C1(C)CC3(N)CC21C.Cl — inhibition (Glutamate NMDA receptor; Grin1/Grin2a (Grin1/Grin2a, Rattus norvegicus, UniProt P35439+Q00959); NMDA-evoked current, channel blocker, whole-cell patch clamp; tsA201 cells; 10 µM, holding potential -60 mV, added: 100 µM NMDA plus 10 µM glycine): 82.5 ± 3.2%
COc1cccc2c1C(=O)c1c(O)c3c(c(O)c1C2=O)C[C@@](O)(C(C)=O)C[C@@H]3O[C@H]1C[C@H](N)[C@H](O)[C@H](C)O1 — inhibition (Organic cation/carnitine transporter 2 (SLC22A5, Homo sapiens, UniProt O76082); transporter uptake, inhibitor; 200 µM): 31.2%
CS(=O)(=O)c1ccc2nc(NC(=O)CCN3CCN(Cc4ccc5c(c4)OCO5)CC3)sc2c1 — inhibition (APP; amyloid aggregation, inhibitor, fluorescence; 50 µM): 45.3%
Oc1cc(Oc2cc(Br)c(Br)cc2Br)c(Br)cc1Br — inhibition (DIO2; H4 glioma; 500 nM, 6 h, added: 10 µM MG132 + 100 µM cycloheximide; reference: MG132 + cycloheximide): 15 ± 5.3%
COc1ccc(Nc2ccc3c(c2)C(c2ccccc2F)=NC(C)C(=O)N3)cc1 (stereo not drawn) — inhibition (ADRA2A; ligand displacement, radioligand; 10 µM): 70%
CNCC(O)c1ccc(O)cc1 (racemic) — inhibition (Sodium channel protein type 10 subunit alpha (SCN10A, Homo sapiens, UniProt Q9Y5Y9); sodium influx, inhibitor, FLIPR; HEK293; 10 µM, added: deltamethrin 10 µM): 79.6%
CS(=O)(=O)c1ccc2nc(NC(=O)CCN3CCN(C(=O)c4ccco4)CC3)sc2c1 — inhibition (APP; amyloid aggregation, inhibitor, fluorescence; 50 µM): 54.5%
CC1N=C(c2ccccc2F)c2cc(Nc3ccc(C(F)(F)F)cc3)ccc2NC1=O (stereo not drawn) — inhibition (ADRA2A; ligand displacement, radioligand; 10 µM): 60%
CPLEMSHKKSFFDKK — inhibition (human REV1 (826-1251) and Polκ (1-615); REV1-Polκ binding, GST pull-down; peptide; up to 100 µM, 4 °C): no inhibition
CCc1ccccc1Nc1ccc2c(c1)C(c1ccccc1F)=NC(C)C(=O)N2 (stereo not drawn) — inhibition (ADRA2A; ligand displacement, radioligand; 10 µM): 4%
Cc1nc2sccn2c(=O)c1CCN1CCC(=C(c2ccccc2)c2ccc(F)cc2)CC1 — inhibition (5-hydroxytryptamine receptor 2B (HTR2B, Homo sapiens, UniProt P41595); agonist response, antagonist; 10 µM, added: reference agonist at EC90): 100%
CC1N=C(c2ccccc2F)c2cc(Nc3ccccc3F)ccc2NC1=O (stereo not drawn) — inhibition (ADRA2A; ligand displacement, radioligand; 10 µM): 63%
COc1ccc(-c2sc(N)nc2-c2cc(OC)c(OC)c(OC)c2)cc1 — inhibition (Tubulin alpha-1B chain/TUBB2B, colchicine site (Bos taurus, UniProt P81947+Q6B856); [3H]colchicine binding; 1 5 5 µM): 79 ± 0.21%

Repeated from above:
O=C(NCCCCN1C(=O)c2ccccc2C1=O)c1coc(-c2ccccc2O)n1 — inhibition (HDAC2; enzyme activity, inhibitor; 20 µM): 25%
COc1ccc(-c2sc(N)nc2-c2cc(OC)c(OC)c(OC)c2)cc1 — inhibition (Tubulin alpha-1B chain/TUBB2B, colchicine site (Bos taurus, UniProt P81947+Q6B856); [3H]colchicine binding; 1 5 5 µM): 79 ± 0.21%
Brc1ccc(Oc2cc(Br)c(Br)cc2Br)c(Br)c1 — inhibition (DIO2; H4 glioma; 500 nM, 6 h; reference: untreated): 78.6 ± 3.9%
CN(C)C/C=C/C(=O)Nc1cccc(C(=O)Nc2ccc(Nc3nccc(-c4cccnc4)n3)cc2)c1 — inhibition (Mitogen-activated protein kinase 14 (MAPK14, Homo sapiens, UniProt Q16539); A-375; 1 µM): 16.4%
COc1cccc2c1C(=O)c1c(O)c3c(c(O)c1C2=O)C[C@@](O)(C(C)=O)C[C@@H]3O[C@H]1C[C@H](N)[C@H](O)[C@H](C)O1 — inhibition (Organic cation/carnitine transporter 2 (SLC22A5, Homo sapiens, UniProt O76082); transporter uptake, inhibitor; 200 µM): 31.2%
CS(=O)(=O)c1ccc2nc(NC(=O)CCN3CCN(c4ccc(Cl)cc4)CC3)sc2c1 — inhibition (APP; amyloid aggregation, inhibitor, fluorescence; 50 µM): 51.7%
